Measured values pooled from the literature.
Compare with care: the assays were run in different laboratories.
Target: Sodium-dependent dopamine transporter (SLC6A3, Homo sapiens, UniProt Q01959)
Sequence of UniProt Q01959 (whole entry, looked up): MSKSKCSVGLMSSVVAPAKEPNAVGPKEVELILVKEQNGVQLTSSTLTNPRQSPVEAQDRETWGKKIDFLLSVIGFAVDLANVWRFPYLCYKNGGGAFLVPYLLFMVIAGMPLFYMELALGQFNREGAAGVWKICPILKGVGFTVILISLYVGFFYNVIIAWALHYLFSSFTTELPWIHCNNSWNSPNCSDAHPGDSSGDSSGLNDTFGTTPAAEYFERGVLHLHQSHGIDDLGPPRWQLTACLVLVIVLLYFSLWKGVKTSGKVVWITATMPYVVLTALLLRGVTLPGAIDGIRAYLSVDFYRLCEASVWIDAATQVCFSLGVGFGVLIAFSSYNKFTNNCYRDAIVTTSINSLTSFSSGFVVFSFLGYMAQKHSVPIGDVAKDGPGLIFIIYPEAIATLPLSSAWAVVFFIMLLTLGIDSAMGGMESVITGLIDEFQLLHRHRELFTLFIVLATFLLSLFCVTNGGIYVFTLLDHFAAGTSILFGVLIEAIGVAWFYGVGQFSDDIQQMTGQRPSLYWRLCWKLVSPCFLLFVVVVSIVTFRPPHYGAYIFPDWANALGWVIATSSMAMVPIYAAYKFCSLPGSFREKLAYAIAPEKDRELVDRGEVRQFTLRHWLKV

SMILES | read-out | mode | technique | tested at | inhibition
COc1ccc(C#CC2=C[C@H]3C[C@@]4(OC(=O)C=C24)[C@H]2CC[C@H](C(OC)OC)N32)cc1 | ligand displacement | – | radioligand | 10 µM | -10%
COc1ccc(C(=O)Nc2c(-c3cccs3)nc3ccccn23)cc1 | ligand displacement | – | radioligand | 10 µM | < 50%
CC(C)Cn1c(SCC(=O)N2CCc3ccccc3C2)nc2cc(Cl)ccc2c1=O | ligand displacement | – | radioligand | 10 µM | -19%
Cc1[nH]nc2c1N=C(c1ccccc1Cl)c1cnc(N3CCOCC3)cc1N2 | cell-free assay | – | – | 10 µM | 20%
O=C1c2sc(-c3ccc(N4CCC(F)C4)nc3F)nc2CCN1c1cccnc1 (stereo not shown) | ligand displacement | – | radioligand | 1 µM | 3%
CCOC(=O)C12CC1C(n1cnc3c(NC)nc(C#Cc4ccc(F)s4)nc31)C(O)C2O (stereo not shown) | ligand displacement | – | radioligand | 10 µM | -320%
Cc1cccc(O[C@H]2CCC[C@@H](C(C)CNCc3ccncc3)C2)c1 (relative stereo) | cell-free assay | – | – | 10 µM | 97%
COc1ccc(S(=O)(=O)N2CCc3ccccc3C2)cc1N1CCN(C(=O)c2ccc(F)cc2C(F)(F)F)CC1 | ligand displacement | – | radioligand | 1 µM | 8.8%
O=C(O)COc1cccc(NC(=O)c2cc(-c3cccc(F)c3)ccc2F)c1 | ligand displacement | – | radioligand | 10 µM | 9%
C[Si]1(C[C@H](CN)CC(=O)O)CCCC1 | ligand displacement | – | radioligand | 70 µM | -8%
CC(=O)c1cnc(N)nc1N1CC[C@H]1c1nn2ccc(Cl)c2c(=O)n1-c1ccccc1 | ligand displacement | – | radioligand | 10 µM | 25%
Cn1ccc2cc(-n3c(=O)[nH]c4sc5c(c4c3=O)CCCC5)ccc21 | transporter uptake | inhibitor | – | 10 µM | -1%
C[Si](C)(C)C[C@@H](CN)CC(=O)O | ligand displacement | – | radioligand | 75 µM | -19%
CNC(=O)C12CC1C(n1cnc3c(NC)nc(C#Cc4ccccc4Cl)nc31)C(O)C2O (stereo not shown) | ligand displacement | – | radioligand | 10 µM | -480%
CO[C@@H](C)c1c(NC(=O)Nc2cnc(-n3nccn3)c(C(F)(F)F)c2)cnc2sc(C)nc12 | ligand displacement | – | radioligand | 10 µM | 19.3%
COCC(=O)N1CCc2cc(-c3csc(NC(=O)c4cc(OC)cc(OC)c4)n3)ccc21 | – | – | – | 10 µM | -1%

Some of these lines once more:
SMILES | read-out | mode | technique | tested at | inhibition
COc1ccc(S(=O)(=O)N2CCc3ccccc3C2)cc1N1CCN(C(=O)c2ccc(F)cc2C(F)(F)F)CC1 | ligand displacement | – | radioligand | 1 µM | 8.8%
